Results from different studies.
± marks the error that the study gave. Ends that are not written are not given here.
B1: neurofilament light chain; sequence looked up; chain SSFSYEPYYSTSYKRRYVETPRVHISSVRSGYSTARSAYSSYSAPVSSSLSVRRSYSSSSGSLMPSLENLDLSQVAAISNDLKSIRTQEKAQLQDLNDRFASFIERVHELEQQNKVLEAELLVLRQKHSEPSRFRALYEQEIRDLRLAAEDATNEKQALQGEREGLEETLRNLQARYEEEVLSREDAEGRLMEARKGADEAALARAELEKRIDSLMDEISFLKKVHEEEIAELQAQIQYAQISVEMDVTKPDLSAALKDIRAQYEKLAAKNMQNAEEWFKSRFTVLTESAAKNTDAVRAAKDEVSESRRLLKAKTLEIEACRGMNEALEKQLQELEDKQNADISAMQDTINKLENELRTTKSEMARYLKEYQDLLNVKMALDIEIAAYRKLLEGEETRLSFTSVGSITSGYSQSSQVFGRSAYGGLQTSSYLMSTRSFPSYYTSHVQEEQIEVEETIEAAKAEEAKDEPPSEGEAEEEEKDKEEAEEEEAAEEEEAAKEESEEAKEEEEGGEGEEGEETKEAEEEEKKVEGAGEEQAAKKKD
UniProt O60656, sequence (whole entry, looked up): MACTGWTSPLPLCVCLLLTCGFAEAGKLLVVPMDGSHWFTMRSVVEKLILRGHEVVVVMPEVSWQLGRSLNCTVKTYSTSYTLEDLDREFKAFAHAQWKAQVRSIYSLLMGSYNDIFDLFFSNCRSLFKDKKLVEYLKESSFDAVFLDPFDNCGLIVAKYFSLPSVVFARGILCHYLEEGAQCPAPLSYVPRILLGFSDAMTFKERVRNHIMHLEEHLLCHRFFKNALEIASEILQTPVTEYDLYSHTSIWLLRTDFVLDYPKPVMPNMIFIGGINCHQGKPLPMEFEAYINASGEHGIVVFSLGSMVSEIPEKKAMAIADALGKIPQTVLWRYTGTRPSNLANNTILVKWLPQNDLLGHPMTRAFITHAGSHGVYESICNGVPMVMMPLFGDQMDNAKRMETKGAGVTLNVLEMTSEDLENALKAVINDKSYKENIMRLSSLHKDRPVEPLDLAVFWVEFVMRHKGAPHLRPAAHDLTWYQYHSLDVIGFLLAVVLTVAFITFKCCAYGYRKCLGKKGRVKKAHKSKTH

`rhodamine B-labelled bovine serum albumin` has an apparent permeability of 0.06 ×10⁻⁶ cm/s (human BBB triple coculture; concentration not given, apical to basolateral).
`insulin aspart` gave a Cmax of 0.363 nM (obese type 2 diabetes patients, serum; subcutaneous, 0.2 U/kg, geometric mean).
`KCNTATCATQRLANFLVHSSNNFGPILPPTNVGSNTY (Pramlintide; not fully specified (C-terminus, bridges); cysteine pairing not given here; sequence looked up)` — result for “adverse event incidence”: 12.5% (measured: Nasopharyngitis; peptide, obese or overweight humans; concentration not given, ITT population).
Under stability, `B1 (neurofilament light chain)` is recorded as “stable” (human EDTA whole blood; 24 h, 2 to 8 °C, delayed centrifugation).
`CC1=C(I)C(C)=[N+]2C1=C(c1ccc(OCCn3cc(CNC(=O)CSC[C@H](NC(=O)c4ccc(-c5nnc(C)c6c5CCC(O)CCC6)cc4)C(=O)N[C@@H](CCCNC(=N)N)C(=O)N[C@@H](CCCNC(=N)N)C(=O)N[C@@H](CCCNC(=N)N)C(=O)N[C@@H](CCCNC(=N)N)C(=O)N[C@@H](CCCNC(=N)N)C(N)=O)nn3)cc1)c1c(C)c(I)c(C)n1[B-]2(F)F` (some centres unmarked): “singlet oxygen quantum yield” 0.59 (1 µM, together with: DPBF, 525 nm light; baseline: rose bengal, erythrosine B).
With `CC(C)[C@H](NC(=O)[C@@H]1CCCN1C(=O)[C@H](CCCNC(=N)N)NC(=O)[C@H](CS)NC(=O)[C@H](Cc1c[nH]c2ccccc12)NC(=O)[C@H](CCCNC(=N)N)NC(=O)[C@@H](Cc1ccccc1)NC(=O)[C@H](Cc1c[nH]cn1)NC(=O)[C@H](CCC(=O)O)NC(=O)[C@H](CS)NC(=O)[C@H](CS)NC(=O)[C@H](CCCCN)NC(=O)[C@@H]1CC(=O)N[C@@H](CCCNC(=N)N)C(=O)N[C@@H](C)C(=O)N[C@@H](CC(=O)O)C(=O)N[C@H](Cc2ccc(O)cc2)C(=O)N1)C(N)=O` [technetium-99m labelled] the tissue uptake was 98.6 ± 13.5 %ID/g (C57 mice, kidneys; intravenous, 0.037 MBq, 4 h).
`insulin aspart` gave an AUC(0-inf) of 8.14 ng·h/mL (healthy subjects, plasma; subcutaneous, 0.2 U/kg).
The Vmax/Km of `UGT1A9 (Homo sapiens, UniProt O60656)` is reported as 8 µL/min/mg (O=c1ccoc2cc(O)ccc12; steady-state kinetics; pH 7.4, 37 °C).
With `insulin` the Tmax was ≤ 1 h (HPLC-UV; diabetic rat, plasma; subcutaneous, 4.0 IU/kg).
For `insulin degludec`, the median Tmax was 11 h (healthy Chinese participants; subcutaneous, 17 U).
`CC1=C(I)C(C)=[N+]2C1=C(c1ccc(OCCn3cc(CNC(=O)CSC[C@H](NC(=O)c4ccc(-c5nnc(C)c6c5CCC(O)CCC6)cc4)C(=O)N[C@@H](CCCNC(=N)N)C(=O)N[C@@H](CCCNC(=N)N)C(=O)N[C@@H](CCCNC(=N)N)C(=O)N[C@@H](CCCNC(=N)N)C(=O)N[C@@H](CCCNC(=N)N)C(=O)N[C@@H](CCCNC(=N)N)C(=O)N[C@@H](CCCNC(=N)N)C(=O)N[C@@H](CCCNC(=N)N)C(N)=O)nn3)cc1)c1c(C)c(I)c(C)n1[B-]2(F)F` (some centres unmarked) — result for “singlet oxygen quantum yield”: 0.6 (1 µM, together with: DPBF, 525 nm light; baseline: rose bengal, erythrosine B).
`COc1cccc2c1C(=O)c1c(O)c3c(c(O)c1C2=O)C[C@@](O)(C(=O)CO)C[C@@H]3O[C@H]1C[C@H](NC(=O)[C@@H]2CCCN2C(=O)CN)[C@H](O)[C@H](C)O1` gave a Cmax of 3700 nM (mouse, E0771 tumour-bearing, plasma; intravenous, 92 µmol/kg PhAc-ALGP-Dox).
`insulin degludec` has a Cmax ratio of 1.05 (human, end-stage renal disease; single dose, non-dialysis profile; baseline: ESRD over normal renal function).
`insulin human` has a partition coefficient of 0.07 ± 0.04 (shake-flask; octanol/buffer; pH 7.4, 37 °C).
With `CSCC[C@H](NC(=O)[C@H](CC(C)C)NC(=O)[C@H](Cc1c[nH]cn1)NC(=O)CNC(=O)[C@@H](NC(=O)[C@H](C)NC(=O)[C@H](Cc1c[nH]c2ccccc12)NC(=O)[C@H](CCC(N)=O)NC(=O)CCCCCNC(=O)[C@H](CCC(=O)NCCCC[C@@H]1NC(=O)[C@@H](Cc2ccc(O)cc2)NC(=O)[C@H](CC(=O)O)NC(=O)CNC(=O)[C@H](CCCNC(=N)N)NC1=O)NC(=O)CN1CCN(CC(=O)O)CCN(CC(=O)O)CC1)C(C)C)C(N)=O` [copper-64 labelled] the tissue uptake was 0.51 ± 0.08 %ID/g (ICR SCID mouse, female, lung; intravenous, 750 kBq, 4 h).
The Vz/F of `teriparatide` is reported as 203 ± 96.1 L (ELISA; healthy women; sc, 20 µg single dose, reference product, arithmetic mean).
`glial fibrillary acidic protein`: stability “stable” (human EDTA whole blood; 24 h, room temperature, delayed centrifugation).

For quick reference, copied from above:
`CC1=C(I)C(C)=[N+]2C1=C(c1ccc(OCCn3cc(CNC(=O)CSC[C@H](NC(=O)c4ccc(-c5nnc(C)c6c5CCC(O)CCC6)cc4)C(=O)N[C@@H](CCCNC(=N)N)C(=O)N[C@@H](CCCNC(=N)N)C(=O)N[C@@H](CCCNC(=N)N)C(=O)N[C@@H](CCCNC(=N)N)C(=O)N[C@@H](CCCNC(=N)N)C(=O)N[C@@H](CCCNC(=N)N)C(=O)N[C@@H](CCCNC(=N)N)C(=O)N[C@@H](CCCNC(=N)N)C(N)=O)nn3)cc1)c1c(C)c(I)c(C)n1[B-]2(F)F` (some centres unmarked) — result for “singlet oxygen quantum yield”: 0.6 (1 µM, together with: DPBF, 525 nm light; baseline: rose bengal, erythrosine B).
`insulin degludec` has a Cmax ratio of 1.05 (human, end-stage renal disease; single dose, non-dialysis profile; baseline: ESRD over normal renal function).
With `insulin` the Tmax was ≤ 1 h (HPLC-UV; diabetic rat, plasma; subcutaneous, 4.0 IU/kg).
